Published values gathered from unrelated publications.
Each numbered part is a random draw from the data of one study; scales do not carry over between parts. Substitutions count along the parent as printed.

Series 1 — target: CCNA2, cyclin fold, Cln2 fusion (human); method: yeast growth competition, sequencing; sample: yeast; notes: strong parent motif; baseline: not given; direction: higher = stronger binding
Starting sequence: WEE1 docking peptide (human); HKTFRKLRLFDTP
Substitution | normalised enrichment score
HKTFRKLRLFDIP [T12I] | 1.71
HKTFRKLRLFDTH [P13H] | 0.544
HKTFNKLRLFDTP [R5N] | -5.95
HKTFRKLRLFMTP [D11M] | 1.52
HKTFRKLSLFDTP [R8S] | 1.93
HKTFVKLRLFDTP [R5V] | 0.573
HKTFRKHRLFDTP [L7H] | 0.562
DKTFRKLRLFDTP [H1D] | 1.53
QKTFRKLRLFDTP [H1Q] | 0.77
HKTFRKLRLFDTD [P13D] | 1.53
HETFRKLRLFDTP [K2E] | 1.2
HKTFRKLDLFDTP [R8D] | 1.48
HKTFYKLRLFDTP [R5Y] | 0.333

Series 2 — method: RNA Bind-n-Seq; form: RNA; sample: in vitro; concentration: 200 nM; notes: whole 134-nt RNA, ends assumed; added: 150 mM KCl; baseline: input library; direction: higher = stronger binding
Target: Ras GTPase-activating protein-binding protein 1, full length (G3BP1, Homo sapiens, UniProt Q13283)
Chain of UniProt Q13283 (whole entry, looked up): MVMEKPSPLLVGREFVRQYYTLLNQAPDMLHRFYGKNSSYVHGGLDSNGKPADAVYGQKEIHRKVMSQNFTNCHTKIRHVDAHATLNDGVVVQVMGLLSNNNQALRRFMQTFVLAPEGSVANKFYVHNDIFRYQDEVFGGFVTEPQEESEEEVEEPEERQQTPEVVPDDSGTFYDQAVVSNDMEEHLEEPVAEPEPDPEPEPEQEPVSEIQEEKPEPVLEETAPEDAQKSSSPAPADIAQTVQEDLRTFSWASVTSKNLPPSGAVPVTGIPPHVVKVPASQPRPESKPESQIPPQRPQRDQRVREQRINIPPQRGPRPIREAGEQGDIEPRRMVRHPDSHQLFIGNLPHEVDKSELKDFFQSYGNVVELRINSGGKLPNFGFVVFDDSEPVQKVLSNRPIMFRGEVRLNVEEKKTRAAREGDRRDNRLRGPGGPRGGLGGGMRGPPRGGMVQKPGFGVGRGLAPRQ
Shared flanks, not repeated: GGGAGUUCUACAGUCCGACGAUC … UGGAAUUCUCGGGUGUCAAGG
Strand | log2 enrichment
ACCAUGCAGGUGGGCAUCUUUGGGAAGUGGGGCAAGGGGGGGAUAGGGAGGGGGGUAACACUUUGGGAACAGGUGGUCGCAGGUCGUUUC | 1.58
CUCAAGUCCUGUGCUACACAUCGUAUGUACCGAAUCGGGGAGGGGAGGGGAGGGAAAGUAUUAUGUUACGCCGUUCGGAUCUGCACUUCC | 1.41
UCCUGUGCUACACAUCGUAUGUACCGAAUCGGGGAAAAAGGGGUUUUUGGGGUUUGGGGAAAGUAUUAUGUUACGCCGUUCGGAUCUGCA | 0.749
GUCCUGUGCUACACAUCGUAUGUACCGAAUCGGUUUUUGGGGUUUUUGGGGUUUUUGGGAAAGUAUUAUGUUACGCCGUUCGGAUCUGCA | -0.555
AGUCCUGUGCUACACAUCGUAUGUACCGAAUCGGGGAGGGGAAAGGGGAAAAAGGGGAAAGUAUUAUGUUACGCCGUUCGGAUCUGCACU | 0.445
UGGGCCUGGUGGCAUGCGGGGAGGAAGAGGUGGCCUCAUGGAUCGUGGUGGUCCCGGUGGAAUGUUCAGAGGUGGCCGUGGUGGAGACAG | 0.832
CAAGUCCUGUGCUACACAUCGUAUGUACCGAAUCGGUUUUUUUGGUGGAAAAAGGAAAGUAUUAUGUUACGCCGUUCGGAUCUGCACUUC | -0.986
CACAGACAACACGCACCCACACAGACACAGAGGGAAGGGGUUGGGAUGGGGACAGGGUGCACGGCAGGGCGGGGUAGGACCCCAGCCCCU | 1.77
CACAGACAACACGCACCCACACAGACACAGAGGGAAGGGGUUGGGAUGGAAACAGGGUGCACAGCAGGGCGGGGUAGGACCCCAGCCCCU | 1.25
AAGUCCUGUGCUACACAUCGUAUGUACCGAAUCGGGGAAAGGGGAAAGGGGUGGGGAAAGUAUUAUGUUACGCCGUUCGGAUCUGCACUU | 0.579

Series 3 — method: RNA Bind-n-Seq; form: RNA; sample: in vitro; concentration: 365 nM; baseline: no-protein control; direction: higher = stronger binding
Target: RNA binding protein fox-1 homolog 2, RRM domain, GST-SBP tag (RBFOX2, Homo sapiens, UniProt O43251-10, residues 100-194)
Notes: natural RNA segment, single round, ends assumed
Shared flanks, not repeated: GGGAGUUCUACAGUCCGACGAUC … UGGAAUUCUCGGGUGCCAA
Target sequence (chain): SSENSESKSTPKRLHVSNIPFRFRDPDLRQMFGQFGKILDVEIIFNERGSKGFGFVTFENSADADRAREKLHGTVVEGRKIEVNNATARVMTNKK
Strand | RBNS enrichment (R)
ACUGGUGCUGUGCUCCAGCCUUAUCAGUUAGGGGACCCAAGGUUUGUUUGGGACCUGGGUACAGGUAAAAGCCAGACUUGGCAGGGACCCCUCUUUCUAGGCUGAACCUU | 0.19
UUUGACCAGAAGAGGAAGCUUGGGGUUGAAUGGGGUGGCUCCAUUCUUCACCACUGGACUGCGGGAGGCGGCUGCACCAGGCCCUCAGUGGAGCGCUGCUGUGACCACUG | 0.677
ACAGUAAUAAGUUGACUCACACAGACUUAAAGCCUGAAAACAUCUUAUUUGUGCAGUCUGACUACACAGAGGCGUAUAAUCCCAAAAUGAAACGUGAUGAACGCACCUUA | 0.34
CUCUAGAUUUCCAAUGACGAUACCCUGGCUGAAUAGGCUUUUCUCUUCCUUGGGCCUUUACUUCUUUUCUUCCUCCUUGGUUUCAGUUCCCAUGUGCUAUCAUUAUAAUC | 0.622
CAGUCUGAGCCAAGUCCCUCCUGCUGGAGAAAAGCCUGGAACUGCCAAAACAAAAAAACAAAUACAAACAAACCUCGUCACCACGGUCAGGAGGAGGUUCAGACAUUCUG | 0.574
CCCGUGACUUUCCCUUCCUGCCCAGGAAAGUGAGGGUCGGCUGGCCCCACCUUCCCUGUCCUGAUGCCGACAGCUUAGGGAAGGGCAGUGAACUUGCAUAUGGGGCUUAG | 0.561
AGCUAUUAGUAGUGGGUGGUCACCAUGACUGCCCAAGCUACAACAGCUGAUCUCUUCCCAGGUCACCUUUGUCCUUACUGCCCCCUUUUCCUUGAUUUUUUUUUCCUUUA | 0.349
UACAUGGUUAAAGCAGCAAGAAUUCUUUUGUUGAUAUGUAAUUAUACACAUAAAAUAUAUAUAUGUAUGAUACAUGAAAUAUAUUUAGAAAUGUUCAUAAUUUUAAUGGA | 0.804
AUGUUGAAUUUUAUUGACUUAAUUGGUCUGUAGAUAUGAAAGCAUCUUCUAAGGAGUUUUAGAUUUAGAUAUUUCUCUCCGCUUUAAAAAAAAAUAAAAUUUGAGUGGAA | 0.703
GCAGAGAAACCUUUCCUCGACCACUCUUUAUUGAGGUACCCUGGUCACACUGAUGGCAGGACACACAAGAGCAGGGUAUUGGUCUGCCCUUCUUCCUCCUGUCCGUCUGA | 0.348
CACAGCAAGUAGGCCUCAAAGUAAUCUUCCUCUUUCCCAUCAAUCAUCUUCUGCCAAGCAUUCAGGCAGAGCAGCUGUUAACUGUGAUUCAAAGUCAGAAAAACAUCAAG | 0.984
CUGUGCCUAGUUCCUGUGGCCAGGAGGUUGGUGACUGAAACAUUCACACAGGGCUCUUUGAUGGACCCACGAACGCUCUUAGCUUUCUCAGGGGGUCAGCAGAGUUAUUG | 0.336

Series 4 — method: protein binding microarray; form: double-stranded DNA, one strand shown; sample: in vitro; concentration: not given; baseline: not given; direction: higher = stronger binding
Target: Histone acetyltransferase KAT6A, both winged helices, GST fusion (KAT6A, Homo sapiens, UniProt Q92794, residues 1-181)
Notes: 8-mer, flanks averaged, mean of 2 arrays, mostly near background
Residues (chain): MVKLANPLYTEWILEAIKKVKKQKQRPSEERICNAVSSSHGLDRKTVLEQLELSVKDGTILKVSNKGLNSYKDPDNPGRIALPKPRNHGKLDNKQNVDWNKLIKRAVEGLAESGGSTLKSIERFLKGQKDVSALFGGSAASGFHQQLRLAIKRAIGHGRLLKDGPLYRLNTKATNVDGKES
Strand | E-score
AACCGACG | 0.264
CTCATGTA | 0.043
CAACTGGC | -0.142
AGGTCGCG | 0.14
CTGGTACA | -0.101
CCCGGGCC | 0.314
CTGCGCAG | 0.131
ACGACGAG | -0.26
AATAATTA | -0.0639
CAGGATCC | -0.144
CATACAAG | -0.0501
GCACGACA | -0.0286
ACACCAGG | -0.217
ACGAATAC | -0.147
CTAAATAA | -0.0189
GATCCGCA | 0.115
AAAGCATA | 0.00585
ACAGCTCG | -0.0385
GTCATCGA | -0.0239
ATTATCGG | 0.169
GATAGCTA | -0.0541
AGGTACGG | 0.217
ACACTGGC | -0.0625
CGTGGCAA | -0.0108
AATGGCGC | 0.241

Series 5 — method: universal PBM; form: double-stranded DNA, one strand shown; sample: in vitro; concentration: not given; direction: higher = stronger binding
Target: Sal-like protein 4, full length isoform B (SALL4, Homo sapiens, UniProt Q9UJQ4-2, residues 1-616)
Notes: 8-mer, flanks averaged, mean of replicates
Strand | E-score
CATTTATC | 0.268
AACGATTG | 0.154
CGGTTGAC | -0.211
AGGCGCCA | -0.154
CCTGTTTA | 0.0527
GGGAACAC | -0.166
GAAATGTA | 0.132
CCGCCGAA | -0.278
ACACCGGG | -0.33
AGTTCCAT | 0.125
CATGGCTC | -0.0811
GAGAAAAC | -0.128
TACTTGCA | 0.21
GCGCCAGA | -0.243
TAGTATGA | 0.33
ACCCAGCA | -0.26
GCCATCAA | -0.0692

Excerpt of the above (series 2):
Strand | log2 enrichment
CUCAAGUCCUGUGCUACACAUCGUAUGUACCGAAUCGGGGAGGGGAGGGGAGGGAAAGUAUUAUGUUACGCCGUUCGGAUCUGCACUUCC | 1.41
UCCUGUGCUACACAUCGUAUGUACCGAAUCGGGGAAAAAGGGGUUUUUGGGGUUUGGGGAAAGUAUUAUGUUACGCCGUUCGGAUCUGCA | 0.749
GUCCUGUGCUACACAUCGUAUGUACCGAAUCGGUUUUUGGGGUUUUUGGGGUUUUUGGGAAAGUAUUAUGUUACGCCGUUCGGAUCUGCA | -0.555
AGUCCUGUGCUACACAUCGUAUGUACCGAAUCGGGGAGGGGAAAGGGGAAAAAGGGGAAAGUAUUAUGUUACGCCGUUCGGAUCUGCACU | 0.445
UGGGCCUGGUGGCAUGCGGGGAGGAAGAGGUGGCCUCAUGGAUCGUGGUGGUCCCGGUGGAAUGUUCAGAGGUGGCCGUGGUGGAGACAG | 0.832
CAAGUCCUGUGCUACACAUCGUAUGUACCGAAUCGGUUUUUUUGGUGGAAAAAGGAAAGUAUUAUGUUACGCCGUUCGGAUCUGCACUUC | -0.986
CACAGACAACACGCACCCACACAGACACAGAGGGAAGGGGUUGGGAUGGGGACAGGGUGCACGGCAGGGCGGGGUAGGACCCCAGCCCCU | 1.77
